Measurements collected from several papers.
Each numbered part is a random draw from the data of one study; scales do not carry over between parts. Several values in a cell are separate wells, animals, samples, runs or records.
Sequence of UniProt Q9HBH9 (whole entry, looked up): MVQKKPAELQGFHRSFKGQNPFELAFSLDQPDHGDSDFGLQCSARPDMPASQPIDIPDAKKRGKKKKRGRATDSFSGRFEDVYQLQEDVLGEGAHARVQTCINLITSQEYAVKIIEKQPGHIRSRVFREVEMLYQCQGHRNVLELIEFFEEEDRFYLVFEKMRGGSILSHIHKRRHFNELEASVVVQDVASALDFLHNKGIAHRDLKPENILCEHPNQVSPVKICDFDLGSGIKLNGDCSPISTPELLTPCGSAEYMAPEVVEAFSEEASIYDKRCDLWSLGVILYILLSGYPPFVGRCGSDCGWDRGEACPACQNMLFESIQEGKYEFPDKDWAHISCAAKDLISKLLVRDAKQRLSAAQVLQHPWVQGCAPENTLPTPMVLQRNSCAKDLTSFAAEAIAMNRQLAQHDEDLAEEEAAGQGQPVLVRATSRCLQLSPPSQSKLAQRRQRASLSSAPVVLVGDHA
Sequence of UniProt P25021 (whole entry, looked up): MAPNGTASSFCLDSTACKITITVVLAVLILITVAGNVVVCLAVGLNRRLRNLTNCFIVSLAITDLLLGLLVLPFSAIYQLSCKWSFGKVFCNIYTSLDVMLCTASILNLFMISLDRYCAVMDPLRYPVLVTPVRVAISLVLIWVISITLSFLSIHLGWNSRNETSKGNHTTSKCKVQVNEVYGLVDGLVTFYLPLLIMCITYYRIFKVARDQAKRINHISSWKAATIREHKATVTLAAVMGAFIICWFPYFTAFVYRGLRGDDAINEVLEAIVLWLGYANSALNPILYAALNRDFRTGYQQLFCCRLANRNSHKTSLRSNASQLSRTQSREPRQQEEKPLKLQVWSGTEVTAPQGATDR
Sequence of UniProt P35367 (whole entry, looked up): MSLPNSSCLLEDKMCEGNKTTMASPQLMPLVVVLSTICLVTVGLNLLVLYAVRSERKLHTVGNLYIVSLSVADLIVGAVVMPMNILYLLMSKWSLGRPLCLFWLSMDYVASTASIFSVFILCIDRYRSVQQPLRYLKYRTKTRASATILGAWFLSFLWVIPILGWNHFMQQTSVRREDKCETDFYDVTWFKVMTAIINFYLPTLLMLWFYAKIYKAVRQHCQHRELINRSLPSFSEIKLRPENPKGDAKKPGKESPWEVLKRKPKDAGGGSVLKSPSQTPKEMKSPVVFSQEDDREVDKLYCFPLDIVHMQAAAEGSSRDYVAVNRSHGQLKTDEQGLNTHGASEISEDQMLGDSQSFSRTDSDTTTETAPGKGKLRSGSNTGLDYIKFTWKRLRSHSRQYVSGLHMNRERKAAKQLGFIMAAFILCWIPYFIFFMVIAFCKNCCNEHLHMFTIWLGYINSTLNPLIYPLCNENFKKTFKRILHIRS
Sequence of UniProt P50750 (whole entry, looked up): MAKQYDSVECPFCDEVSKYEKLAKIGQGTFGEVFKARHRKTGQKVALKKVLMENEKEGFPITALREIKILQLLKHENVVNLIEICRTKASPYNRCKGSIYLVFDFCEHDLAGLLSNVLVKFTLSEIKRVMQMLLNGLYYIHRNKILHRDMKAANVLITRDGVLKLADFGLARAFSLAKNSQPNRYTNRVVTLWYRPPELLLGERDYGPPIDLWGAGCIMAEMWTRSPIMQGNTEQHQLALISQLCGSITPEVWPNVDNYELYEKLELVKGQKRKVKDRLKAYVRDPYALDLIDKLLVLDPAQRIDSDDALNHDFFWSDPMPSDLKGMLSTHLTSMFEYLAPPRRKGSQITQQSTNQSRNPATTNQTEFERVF
Sequence of UniProt O15264 (whole entry, looked up): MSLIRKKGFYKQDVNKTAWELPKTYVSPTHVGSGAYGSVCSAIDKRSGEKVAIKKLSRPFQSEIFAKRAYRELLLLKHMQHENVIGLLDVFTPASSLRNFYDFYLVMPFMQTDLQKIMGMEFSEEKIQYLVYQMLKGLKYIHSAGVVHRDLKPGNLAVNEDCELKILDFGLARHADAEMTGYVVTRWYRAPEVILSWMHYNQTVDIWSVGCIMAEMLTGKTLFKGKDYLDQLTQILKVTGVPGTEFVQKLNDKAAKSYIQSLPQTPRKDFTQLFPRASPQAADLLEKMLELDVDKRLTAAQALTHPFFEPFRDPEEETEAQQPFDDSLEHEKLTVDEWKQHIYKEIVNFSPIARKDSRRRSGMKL
Sequence of UniProt P18825 (whole entry, looked up): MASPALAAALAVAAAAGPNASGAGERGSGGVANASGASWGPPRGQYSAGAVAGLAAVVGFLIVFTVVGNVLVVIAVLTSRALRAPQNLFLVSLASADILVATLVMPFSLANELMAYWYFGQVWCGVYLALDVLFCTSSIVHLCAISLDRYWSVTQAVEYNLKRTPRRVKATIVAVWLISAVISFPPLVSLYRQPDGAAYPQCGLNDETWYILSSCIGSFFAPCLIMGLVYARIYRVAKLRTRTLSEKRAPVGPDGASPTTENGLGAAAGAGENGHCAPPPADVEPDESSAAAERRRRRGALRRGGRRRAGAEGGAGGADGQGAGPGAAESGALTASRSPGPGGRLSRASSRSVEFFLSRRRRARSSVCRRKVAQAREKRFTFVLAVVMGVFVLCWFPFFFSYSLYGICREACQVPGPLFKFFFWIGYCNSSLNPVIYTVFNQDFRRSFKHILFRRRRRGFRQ
Sequence of UniProt Q13976 (whole entry, looked up): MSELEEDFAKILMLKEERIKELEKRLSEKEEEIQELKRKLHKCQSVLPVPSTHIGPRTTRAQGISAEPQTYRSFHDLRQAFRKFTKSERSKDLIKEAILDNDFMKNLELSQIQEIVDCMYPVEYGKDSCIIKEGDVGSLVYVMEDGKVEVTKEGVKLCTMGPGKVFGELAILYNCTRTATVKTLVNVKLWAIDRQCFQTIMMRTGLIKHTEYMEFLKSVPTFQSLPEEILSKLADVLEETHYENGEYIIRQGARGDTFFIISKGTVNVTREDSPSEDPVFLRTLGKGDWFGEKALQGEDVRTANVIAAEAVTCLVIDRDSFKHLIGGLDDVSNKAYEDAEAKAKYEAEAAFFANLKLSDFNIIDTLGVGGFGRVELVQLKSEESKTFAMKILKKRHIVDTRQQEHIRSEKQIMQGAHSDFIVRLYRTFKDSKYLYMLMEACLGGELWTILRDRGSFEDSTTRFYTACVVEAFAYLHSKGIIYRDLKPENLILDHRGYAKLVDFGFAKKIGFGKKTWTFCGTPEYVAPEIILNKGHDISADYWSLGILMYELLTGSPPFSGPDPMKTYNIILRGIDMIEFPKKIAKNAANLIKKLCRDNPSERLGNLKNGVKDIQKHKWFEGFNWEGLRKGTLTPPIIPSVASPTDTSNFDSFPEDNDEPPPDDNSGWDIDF
Sequence of UniProt P35368 (whole entry, looked up): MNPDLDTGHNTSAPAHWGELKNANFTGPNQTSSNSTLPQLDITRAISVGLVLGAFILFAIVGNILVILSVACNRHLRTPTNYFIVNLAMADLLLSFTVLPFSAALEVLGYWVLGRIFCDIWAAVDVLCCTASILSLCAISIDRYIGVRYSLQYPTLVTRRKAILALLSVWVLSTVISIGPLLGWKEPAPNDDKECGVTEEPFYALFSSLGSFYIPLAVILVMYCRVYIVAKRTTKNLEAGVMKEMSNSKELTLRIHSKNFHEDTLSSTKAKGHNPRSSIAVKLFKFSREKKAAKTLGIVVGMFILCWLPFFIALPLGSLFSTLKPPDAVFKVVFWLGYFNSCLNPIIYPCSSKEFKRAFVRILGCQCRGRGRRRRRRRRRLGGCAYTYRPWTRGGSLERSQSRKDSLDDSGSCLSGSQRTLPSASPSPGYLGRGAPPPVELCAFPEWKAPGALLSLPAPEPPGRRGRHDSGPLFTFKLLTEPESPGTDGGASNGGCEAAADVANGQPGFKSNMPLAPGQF
Sequence of UniProt P46098 (whole entry, looked up): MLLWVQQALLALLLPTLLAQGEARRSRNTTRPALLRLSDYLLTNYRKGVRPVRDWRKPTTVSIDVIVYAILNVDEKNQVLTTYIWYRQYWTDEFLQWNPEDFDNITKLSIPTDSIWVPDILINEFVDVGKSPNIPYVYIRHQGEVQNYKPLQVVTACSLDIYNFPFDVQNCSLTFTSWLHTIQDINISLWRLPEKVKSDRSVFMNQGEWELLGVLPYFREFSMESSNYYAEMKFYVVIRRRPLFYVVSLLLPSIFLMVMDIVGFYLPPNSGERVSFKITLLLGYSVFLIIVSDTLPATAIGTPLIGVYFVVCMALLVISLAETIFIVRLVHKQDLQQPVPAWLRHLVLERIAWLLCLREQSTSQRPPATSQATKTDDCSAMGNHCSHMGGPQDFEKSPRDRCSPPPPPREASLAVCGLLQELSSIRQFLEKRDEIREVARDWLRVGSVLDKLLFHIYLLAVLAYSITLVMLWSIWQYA
Sequence of UniProt O14757 (whole entry, looked up): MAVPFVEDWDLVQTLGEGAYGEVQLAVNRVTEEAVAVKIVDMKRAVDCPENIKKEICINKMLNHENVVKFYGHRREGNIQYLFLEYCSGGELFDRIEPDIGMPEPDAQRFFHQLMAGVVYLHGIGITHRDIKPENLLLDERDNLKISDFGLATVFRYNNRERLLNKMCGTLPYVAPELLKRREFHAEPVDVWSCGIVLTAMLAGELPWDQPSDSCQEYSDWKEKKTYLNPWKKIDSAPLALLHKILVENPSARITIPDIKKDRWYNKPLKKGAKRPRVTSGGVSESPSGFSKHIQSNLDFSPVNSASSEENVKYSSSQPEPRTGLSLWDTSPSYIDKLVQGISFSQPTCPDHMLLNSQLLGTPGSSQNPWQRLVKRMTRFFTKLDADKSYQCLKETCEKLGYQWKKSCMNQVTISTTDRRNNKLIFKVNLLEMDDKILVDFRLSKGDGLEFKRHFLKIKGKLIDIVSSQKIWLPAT

Sample 1
SMILES: COc1ccc(Cl)cc1NC(=O)Nc1cc(C)nc2ccccc12
Read-out: enzyme activity
Mode: inhibitor
Tested at: 0.5 µM
Reference: control
For Casein kinase II subunit alpha (CSNK2A1, Homo sapiens, UniProt P68400): remaining activity read 97.9%.
It gave 111% for remaining activity (Tyrosine-protein kinase Lyn (LYN, Homo sapiens, UniProt P07948)).
For Mast/stem cell growth factor receptor Kit (KIT, Homo sapiens, UniProt P10721): remaining activity read 102%.
For Mitogen-activated protein kinase kinase kinase kinase 2 (MAP4K2, Homo sapiens, UniProt Q12851): remaining activity read 114%.
For RAC-gamma serine/threonine-protein kinase (AKT3, Homo sapiens, UniProt Q9Y243): remaining activity read 103%.
It gave 98% for remaining activity (Leucine-rich repeat serine/threonine-protein kinase 2 (LRRK2, Homo sapiens, UniProt Q5S007)).
It gave 97.5% for remaining activity (cGMP-dependent protein kinase 1 (PRKG1, Homo sapiens, UniProt Q13976)).
The remaining activity was 108% (Mitogen-activated protein kinase 13 (MAPK13, Homo sapiens, UniProt O15264)).
It gave 96.6% for remaining activity (Serine/threonine-protein kinase Chk1 (CHEK1, Homo sapiens, UniProt O14757)).
For Serine/threonine-protein kinase WNK2 (WNK2, Homo sapiens, UniProt Q9Y3S1): remaining activity read 104%.
Cyclin-dependent kinase 9, with cyclin T1 (CDK9, Homo sapiens, UniProt P50750) — remaining activity: 98.2%.
MAP kinase-interacting serine/threonine-protein kinase 2 (MKNK2, Homo sapiens, UniProt Q9HBH9) — remaining activity: 90.3%.
For Interleukin-1 receptor-associated kinase 4 (IRAK4, Homo sapiens, UniProt Q9NWZ3): remaining activity read 99.9%.

Sample 2
Cell line: mouse MPNST tumor cells
Technique: high-content nuclear imaging
Refers to: cell number
Tested at: 10 µM
Time: 12 h
Notes: mean of 2 replicates
Reference: plate mean
Reading: higher = more cells
CCCS(=O)(=O)c1nc(NC2CC2)cc(-c2ccc3c(ccn3C3CC(C)(C)NC(C)(C)C3)c2)n1 has a nuclei count of -5.99 z-score.
For Clc1ccc(Nc2nnc(Cc3ccncc3)c3ccccc23)cc1, the nuclei count was 3.18 z-score and 3.89 z-score.
N=C(N)NC(=O)c1cnn(-c2cccc3ncccc23)c1C1CC1 has a nuclei count of 0.211 z-score.
With CNC(C)CCC=C(C)C (centres unmarked) the nuclei count was 0.388 z-score.
For O=C1NCCN1CCN1CCC(c2cn(-c3ccc(F)cc3)c3ccc(Cl)cc23)CC1, the nuclei count was -5.21 z-score.
CN(C)CC/C=C1/c2ccccc2Sc2ccc(Cl)cc21 has a nuclei count of -5.16 z-score.
For CC(=O)[C@H]1CC[C@H]2[C@@H]3CCC4=CC(=O)CC[C@]4(C)[C@H]3CC[C@]12C, the nuclei count was 2.53 z-score.
With COc1ccc(C(=O)c2ccccc2)c(O)c1 the nuclei count was 1.41 z-score.
For COc1cc(SC)ccc1C(=O)N1CCC(Cc2ccccc2)CC1, the nuclei count was 2.05 z-score.
For COC(=O)c1csc(C(=O)c2c[nH]c3ccccc23)n1, the nuclei count was 0.345 z-score.
With CNc1cc2c(Nc3cccc(Br)c3)ncnc2cn1 the nuclei count was 0.782 z-score.
CCCCOc1nc(N)c2[nH]c(=O)n(Cc3cccc(CC(=O)OC)c3)c2n1 has a nuclei count of -0.0203 z-score.

Sample 3
Cell line: A-375
Tested at: 100 µM
Time: 18 h
The viability of N=C(N)c1ccc(OCCCCCOc2ccc(C(=N)N)cc2)cc1 is reported as 57.5%.
Nc1ccc(S(=O)(=O)Nc2ccc(Cl)nn2)cc1 has a viability of 98.2%.
The viability of CCCCOc1cc(C(=O)OCCN(CC)CC)ccc1N is reported as 104%.
C[C@@H](O[C@H]1OCCN(Cc2n[nH]c(=O)[nH]2)[C@H]1c1ccc(F)cc1)c1cc(C(F)(F)F)cc(C(F)(F)F)c1 gave a viability of 7.95%.
The viability of C=CC[C@@H]1/C=C(\C)C[C@H](C)C[C@H](OC)[C@H]2O[C@@](O)(C(=O)C(=O)N3CCCC[C@H]3C(=O)O[C@H](/C(C)=C/[C@@H]3CC[C@@H](O)[C@H](OC)C3)[C@H](C)[C@@H](O)CC1=O)[C@H](C)C[C@@H]2OC is reported as 12.1%.
With Clc1ccc(C(Cn2ccnc2)OCc2c(Cl)cccc2Cl)c(Cl)c1 (centres unmarked) the viability was 91.5%.
With O=C(/C=C/c1cccc(S(=O)(=O)Nc2ccccc2)c1)NO the viability was 36.8%.
CCN[C@H]1CN(CCCOC)S(=O)(=O)c2sc(S(N)(=O)=O)cc21 has a viability of 91.4%.

Sample 4
SMILES: CNC(=O)c1cc(C(=O)N[C@H]2[C@@H]3COC[C@@H]32)cc2c1O[C@@H](CF)[C@@H]2c1ccccc1
Read-out: binding
Technique: radioligand binding
Tested at: 10 µM
The inhibition was 7.66% (Alpha-2C adrenergic receptor (ADRA2C, Homo sapiens, UniProt P18825)).
It gave -1.58% for inhibition (Histamine H1 receptor (HRH1, Homo sapiens, UniProt P35367)).
It gave -13.3% for inhibition (Histamine H4 receptor (HRH4, Homo sapiens, UniProt Q9H3N8)).
For Muscarinic acetylcholine receptor M4 (CHRM4, Homo sapiens, UniProt P08173): inhibition read 6.19%.
It gave 22.8% for inhibition (Alpha-2B adrenergic receptor (ADRA2B, Homo sapiens, UniProt P18089)).
Alpha-1B adrenergic receptor (ADRA1B, Homo sapiens, UniProt P35368) — inhibition: -0.98%.
For 5-hydroxytryptamine receptor 5A (HTR5A, Homo sapiens, UniProt P47898): inhibition read -11.2%.
It gave 10.6% for inhibition (5-hydroxytryptamine receptor 3A (HTR3A, Homo sapiens, UniProt P46098)).
It gave -7.87% for inhibition (Alpha-1D adrenergic receptor (ADRA1D, Homo sapiens, UniProt P25100)).
The inhibition was -7.3% (Muscarinic acetylcholine receptor M2 (CHRM2, Homo sapiens, UniProt P08172)).
For Histamine H2 receptor (HRH2, Homo sapiens, UniProt P25021): inhibition read 4.49%.
The inhibition was 31% (Beta-3 adrenergic receptor (ADRB3, Homo sapiens, UniProt P13945)).
It gave -6.73% for inhibition (D(1A) dopamine receptor (DRD1, Homo sapiens, UniProt P21728)).
For 5-hydroxytryptamine receptor 7 (HTR7, Homo sapiens, UniProt P34969): inhibition read 1.31%.

A few entries again (sample 3):
With Clc1ccc(C(Cn2ccnc2)OCc2c(Cl)cccc2Cl)c(Cl)c1 (centres unmarked) the viability was 91.5%.
The viability of CCCCOc1cc(C(=O)OCCN(CC)CC)ccc1N is reported as 104%.
The viability of N=C(N)c1ccc(OCCCCCOc2ccc(C(=N)N)cc2)cc1 is reported as 57.5%.
C[C@@H](O[C@H]1OCCN(Cc2n[nH]c(=O)[nH]2)[C@H]1c1ccc(F)cc1)c1cc(C(F)(F)F)cc(C(F)(F)F)c1 gave a viability of 7.95%.
CCN[C@H]1CN(CCCOC)S(=O)(=O)c2sc(S(N)(=O)=O)cc21 has a viability of 91.4%.
